Measured values of several laboratories.
Every numbered part comes from another study and shows a few of its results, in no order. Substitutions count along the parent as printed.
Sequence of UniProt O15294 (whole entry, looked up): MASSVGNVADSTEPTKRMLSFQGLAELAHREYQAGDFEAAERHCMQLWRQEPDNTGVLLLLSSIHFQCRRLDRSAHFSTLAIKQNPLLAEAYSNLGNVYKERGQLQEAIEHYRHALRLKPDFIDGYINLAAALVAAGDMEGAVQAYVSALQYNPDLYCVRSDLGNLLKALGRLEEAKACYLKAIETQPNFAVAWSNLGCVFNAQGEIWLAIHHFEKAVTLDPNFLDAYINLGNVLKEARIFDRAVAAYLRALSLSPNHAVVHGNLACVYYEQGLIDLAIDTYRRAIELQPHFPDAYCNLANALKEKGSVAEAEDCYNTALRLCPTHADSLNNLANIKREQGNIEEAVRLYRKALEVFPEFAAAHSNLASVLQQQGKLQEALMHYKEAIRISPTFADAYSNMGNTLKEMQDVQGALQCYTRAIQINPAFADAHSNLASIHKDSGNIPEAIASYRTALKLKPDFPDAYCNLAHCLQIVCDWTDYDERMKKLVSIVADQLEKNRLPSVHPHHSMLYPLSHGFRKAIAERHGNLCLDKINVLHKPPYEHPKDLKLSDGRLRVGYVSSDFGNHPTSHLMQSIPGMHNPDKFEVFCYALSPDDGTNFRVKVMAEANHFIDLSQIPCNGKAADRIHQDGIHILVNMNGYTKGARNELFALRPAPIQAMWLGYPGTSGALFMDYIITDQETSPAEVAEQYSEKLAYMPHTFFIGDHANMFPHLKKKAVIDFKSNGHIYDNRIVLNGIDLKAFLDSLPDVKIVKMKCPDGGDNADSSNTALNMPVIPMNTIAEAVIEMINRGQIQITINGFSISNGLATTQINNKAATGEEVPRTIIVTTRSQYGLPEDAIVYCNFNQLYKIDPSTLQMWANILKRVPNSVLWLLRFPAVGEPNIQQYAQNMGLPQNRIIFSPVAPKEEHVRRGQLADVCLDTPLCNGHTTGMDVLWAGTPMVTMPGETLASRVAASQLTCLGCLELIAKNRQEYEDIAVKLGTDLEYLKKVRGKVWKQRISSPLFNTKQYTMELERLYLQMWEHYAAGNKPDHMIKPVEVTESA

Sample 1
Target: Interferon regulatory factor 7, full length, phosphomimetic (IRF7, Homo sapiens, UniProt Q92985, residues 1-503, S471D/S472D/S475D/S476D/S477D/S483D/S484D/S487D)
Method: protein-binding microarray
Form: double-stranded DNA, one strand shown
Medium: in vitro
Concentration: 2200 nM top
Notes: 60-bp whole probe
With: salmon DNA 0.4 mg/ml
Baseline: random background probes
Reading: higher = stronger binding
Measurement: fitted relative affinity
All sequences stand within: GCCTAGCAC … GTCTTGATTCGCTTGACGCTGCTG
Target sequence (chain): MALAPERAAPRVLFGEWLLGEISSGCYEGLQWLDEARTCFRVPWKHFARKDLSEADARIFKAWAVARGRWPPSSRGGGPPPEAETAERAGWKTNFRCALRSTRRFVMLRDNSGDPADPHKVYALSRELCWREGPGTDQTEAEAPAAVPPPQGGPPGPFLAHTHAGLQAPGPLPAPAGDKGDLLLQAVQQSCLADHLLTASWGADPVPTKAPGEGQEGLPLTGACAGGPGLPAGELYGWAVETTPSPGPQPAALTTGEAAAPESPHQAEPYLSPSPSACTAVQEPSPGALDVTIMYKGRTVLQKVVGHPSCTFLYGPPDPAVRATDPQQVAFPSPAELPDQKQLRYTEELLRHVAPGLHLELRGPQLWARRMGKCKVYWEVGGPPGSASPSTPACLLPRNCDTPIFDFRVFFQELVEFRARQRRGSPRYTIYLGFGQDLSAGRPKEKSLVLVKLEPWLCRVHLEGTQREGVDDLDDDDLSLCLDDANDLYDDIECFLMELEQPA
GACGATTTCGGGACTGGGGACGTGCTA: 1.28 z-score
CAGGTTCTCTTTTATTTTTTGTGCTAG: 1.84 z-score
GACGGTTTCTTTTTCCTGACGTGCTAG: 4.14 z-score
TCATTTCCCTATTATATAACTGTGCTA: 3.2 z-score
TCATTTTTTTTCTTTAAACTGTGCTAG: 1.62 z-score
TGAGGACTGCTACTGCTTTAGTGCTAG: -0.261 z-score
TTAGAACTGCGGTTTCGATTAGTGCTA: 3.46 z-score
GACGGACTGGGTTTCGTGACGTGCTAG: 0.419 z-score

Sample 2
Target: ATF5, bZIP domain (human)
Method: DHFR protein complementation
Medium: yeast
Notes: single substitutions, most at no-binding floor
Baseline: wild-type JUN-FOS pair
Reading: higher = stronger binding
Measurement: binding fitness
Starting sequence: JUN, bZIP domain (human); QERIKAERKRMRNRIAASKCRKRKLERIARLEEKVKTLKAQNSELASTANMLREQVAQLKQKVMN; partner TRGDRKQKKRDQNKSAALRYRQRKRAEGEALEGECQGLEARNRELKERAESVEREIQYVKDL
N42W: -1.39 natural log
A29I: -1.42 natural log
L52F: -1.5 natural log
L52M: -1.51 natural log
A29P: -1.54 natural log
V35H: -1.48 natural log
A49Y: -1.54 natural log
V35K: -1.46 natural log

Sample 3
Target: Histone acetyltransferase KAT6A, winged helix 2, GST fusion (KAT6A, Homo sapiens, UniProt Q92794, residues 85-181)
Method: protein binding microarray
Form: double-stranded DNA, one strand shown
Medium: in vitro
Concentration: not given
Notes: 8-mer, flanks averaged, mean of 2 arrays, mostly near background
Baseline: not given
Reading: higher = stronger binding
Measurement: E-score
Residues (chain): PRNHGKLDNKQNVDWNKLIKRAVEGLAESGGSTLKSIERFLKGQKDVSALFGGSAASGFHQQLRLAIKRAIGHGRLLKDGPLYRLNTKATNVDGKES
GTTCCGTA: -0.0156
ATATGCCC: -0.242
CGAGGCCA: -0.0417
ATTAGTTC: -0.0967
GAGCAGCC: 0.118
AAACACTA: 0.0184
CGCAGTTC: 0.116
GGAAACTA: 0.047

Mixed results
RPYDMAYAPVYMIKY  minimum log2 enrichment ratio (UDP-N-acetylglucosamine--peptide N-acetylglucosaminyltransferase 110 kDa subunit (OGT, Homo sapiens, UniProt O15294); binding, phage display NGS; peptide; panning round 2; baseline: input library): 2.59

A few entries again (sample 3):
AAACACTA: 0.0184
ATTAGTTC: -0.0967
